Results pooled from the literature.
Every numbered part comes from another study and shows a few of its results, in no order.
Chain of UniProt P57059 (whole entry, looked up): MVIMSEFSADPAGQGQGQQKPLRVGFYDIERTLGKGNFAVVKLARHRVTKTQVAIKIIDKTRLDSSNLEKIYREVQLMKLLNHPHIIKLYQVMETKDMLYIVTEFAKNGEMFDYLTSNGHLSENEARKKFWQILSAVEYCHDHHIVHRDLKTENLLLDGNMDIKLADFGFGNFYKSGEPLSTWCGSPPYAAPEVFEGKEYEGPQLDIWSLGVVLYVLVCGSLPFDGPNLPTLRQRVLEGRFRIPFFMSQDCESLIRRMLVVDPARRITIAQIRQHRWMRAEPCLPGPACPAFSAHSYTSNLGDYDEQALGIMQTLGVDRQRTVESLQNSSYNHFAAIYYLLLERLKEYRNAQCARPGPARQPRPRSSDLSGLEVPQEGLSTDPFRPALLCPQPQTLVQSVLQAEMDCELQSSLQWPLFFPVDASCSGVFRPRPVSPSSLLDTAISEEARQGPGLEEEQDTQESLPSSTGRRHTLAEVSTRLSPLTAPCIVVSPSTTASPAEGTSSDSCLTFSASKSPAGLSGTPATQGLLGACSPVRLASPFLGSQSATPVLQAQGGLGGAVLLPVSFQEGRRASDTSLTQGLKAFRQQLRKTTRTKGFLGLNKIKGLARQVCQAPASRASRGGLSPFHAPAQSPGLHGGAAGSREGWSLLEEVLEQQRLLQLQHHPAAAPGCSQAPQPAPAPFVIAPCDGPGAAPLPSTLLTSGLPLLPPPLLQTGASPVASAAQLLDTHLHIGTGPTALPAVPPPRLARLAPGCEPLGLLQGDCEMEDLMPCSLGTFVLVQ
Chain of UniProt Q8WU08 (whole entry, looked up): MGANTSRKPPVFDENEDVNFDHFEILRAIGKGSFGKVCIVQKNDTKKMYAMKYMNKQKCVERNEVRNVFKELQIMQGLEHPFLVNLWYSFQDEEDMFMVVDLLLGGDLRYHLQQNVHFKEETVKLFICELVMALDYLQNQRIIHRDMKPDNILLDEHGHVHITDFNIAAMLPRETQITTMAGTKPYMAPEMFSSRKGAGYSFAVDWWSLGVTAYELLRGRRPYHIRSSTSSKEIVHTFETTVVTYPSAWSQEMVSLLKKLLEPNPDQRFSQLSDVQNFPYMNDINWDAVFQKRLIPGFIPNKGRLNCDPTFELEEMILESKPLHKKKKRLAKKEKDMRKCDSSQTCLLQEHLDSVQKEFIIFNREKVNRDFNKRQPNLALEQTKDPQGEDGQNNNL
Chain of UniProt Q8NEV4 (whole entry, looked up): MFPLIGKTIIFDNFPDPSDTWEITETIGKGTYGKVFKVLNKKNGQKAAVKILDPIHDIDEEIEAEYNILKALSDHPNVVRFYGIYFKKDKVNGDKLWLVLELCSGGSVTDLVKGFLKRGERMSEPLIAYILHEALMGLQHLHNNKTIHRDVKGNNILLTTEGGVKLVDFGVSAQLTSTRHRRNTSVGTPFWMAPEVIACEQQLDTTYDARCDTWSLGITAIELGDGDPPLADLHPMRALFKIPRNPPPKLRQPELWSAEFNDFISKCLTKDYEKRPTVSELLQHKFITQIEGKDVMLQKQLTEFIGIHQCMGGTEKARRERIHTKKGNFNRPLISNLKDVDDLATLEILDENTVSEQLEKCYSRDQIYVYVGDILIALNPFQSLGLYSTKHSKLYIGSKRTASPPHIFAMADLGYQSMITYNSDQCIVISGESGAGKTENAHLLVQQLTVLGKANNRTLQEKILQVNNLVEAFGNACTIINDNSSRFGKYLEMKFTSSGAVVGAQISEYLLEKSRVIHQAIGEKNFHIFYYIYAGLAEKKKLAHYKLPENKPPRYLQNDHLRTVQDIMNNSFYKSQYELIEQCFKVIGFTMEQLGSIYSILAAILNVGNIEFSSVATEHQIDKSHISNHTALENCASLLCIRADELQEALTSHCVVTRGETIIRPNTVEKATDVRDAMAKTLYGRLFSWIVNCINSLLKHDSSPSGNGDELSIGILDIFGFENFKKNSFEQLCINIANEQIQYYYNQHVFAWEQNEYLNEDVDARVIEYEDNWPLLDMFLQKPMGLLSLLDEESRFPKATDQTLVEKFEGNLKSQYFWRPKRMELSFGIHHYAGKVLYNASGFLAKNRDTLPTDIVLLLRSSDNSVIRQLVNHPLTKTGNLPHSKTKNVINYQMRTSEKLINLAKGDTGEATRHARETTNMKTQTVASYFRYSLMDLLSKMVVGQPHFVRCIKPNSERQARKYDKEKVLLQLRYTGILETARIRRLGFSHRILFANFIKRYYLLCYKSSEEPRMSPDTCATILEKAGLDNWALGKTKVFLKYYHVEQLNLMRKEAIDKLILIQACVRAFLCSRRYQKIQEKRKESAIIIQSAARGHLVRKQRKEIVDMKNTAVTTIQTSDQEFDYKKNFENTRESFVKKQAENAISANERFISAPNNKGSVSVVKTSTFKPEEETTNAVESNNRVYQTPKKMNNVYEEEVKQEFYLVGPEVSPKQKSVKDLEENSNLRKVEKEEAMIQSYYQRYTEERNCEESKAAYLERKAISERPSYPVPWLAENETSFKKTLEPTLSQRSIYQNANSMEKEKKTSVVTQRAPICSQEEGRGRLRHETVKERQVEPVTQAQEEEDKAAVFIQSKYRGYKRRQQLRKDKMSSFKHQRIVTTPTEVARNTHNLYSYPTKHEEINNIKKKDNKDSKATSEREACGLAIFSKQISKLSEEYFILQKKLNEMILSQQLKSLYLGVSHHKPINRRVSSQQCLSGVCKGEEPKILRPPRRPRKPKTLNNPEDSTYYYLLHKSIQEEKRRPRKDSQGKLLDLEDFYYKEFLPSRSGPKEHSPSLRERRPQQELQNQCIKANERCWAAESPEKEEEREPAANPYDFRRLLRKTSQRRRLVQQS
Chain of UniProt Q09013 (whole entry, looked up): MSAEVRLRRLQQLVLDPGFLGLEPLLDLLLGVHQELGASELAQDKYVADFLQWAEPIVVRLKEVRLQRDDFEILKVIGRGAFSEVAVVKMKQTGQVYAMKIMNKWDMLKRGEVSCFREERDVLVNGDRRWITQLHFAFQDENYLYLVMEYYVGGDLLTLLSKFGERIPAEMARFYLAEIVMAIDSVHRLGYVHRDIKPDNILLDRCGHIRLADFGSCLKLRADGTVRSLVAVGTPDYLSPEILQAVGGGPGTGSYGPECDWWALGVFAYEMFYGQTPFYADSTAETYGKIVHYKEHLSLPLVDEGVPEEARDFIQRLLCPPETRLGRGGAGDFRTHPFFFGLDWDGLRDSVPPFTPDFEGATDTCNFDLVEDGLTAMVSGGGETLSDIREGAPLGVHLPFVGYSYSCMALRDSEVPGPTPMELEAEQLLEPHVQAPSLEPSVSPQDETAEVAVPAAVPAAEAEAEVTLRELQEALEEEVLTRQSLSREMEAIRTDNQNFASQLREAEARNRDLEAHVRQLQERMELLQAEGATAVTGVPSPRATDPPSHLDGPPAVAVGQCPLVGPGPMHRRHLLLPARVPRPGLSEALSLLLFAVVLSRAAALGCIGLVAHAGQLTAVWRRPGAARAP

Set 1 — sample: plasma; route: oral
Structure (SMILES): COc1ccc(-c2c(Nc3ccccn3)[nH]c3c(C4=CCCCC4)c(-c4ccccc4)nn3c2=O)cc1
test | system | setting | plasma concentration, geometric mean
– | human patients | 400 mg once daily, 0 h, cycle 1 | 2370 ng/mL
– | cancer patients | 200 mg, 4 h post-dose, single dose | 1210 ng/mL
– | cancer patients | 200 mg, 3 h post-dose, single dose | 1140 ng/mL
LC-MS/MS | human | 50 mg once daily, 6 h, cycle 1 | 1600 ng/mL
– | human patients | 200 mg once daily, 6 h, cycle 1 | 4870 ng/mL
LC-MS/MS | human | 200 mg twice daily, 0 h | 11300 ng/mL
– | human patients | 150 mg once daily, 8 h, cycle 1 | 4190 ng/mL
– | cancer patients | 100 mg, 1 h post-dose, single dose | 135 ng/mL
– | human patients | 100 mg once daily, 6 h, cycle 1 | 2910 ng/mL
LC-MS/MS | human | 200 mg twice daily, 0.5 h, single dose | 60.3 ng/mL
– | human patients | 150 mg once daily, 2 h, cycle 1 | 4800 ng/mL

Set 2 — species: mouse; sample: microsomes or S9; tested at: 2 µM; time: 0.5 h
Structure (SMILES) | remaining compound [%]
CCN1C(=O)C2(CC(=O)Nc3c2cnn3-c2ccccc2Cl)c2cccc(C)c21 (stereo not drawn) | 0
Cc1c(Br)cc(C(=O)N(C)Cc2cscn2)c(=O)n1C | 85.4
CCOC(=O)c1cc2n(c1)CCCc1c(N)n[nH]c1-2 | 35.1
COC(=O)Cn1nc2c3c(C)c(C)sc3ncn2c1=O | 0.329
Cc1ccc(S(=O)(=O)N2CCN(C(=O)CN3CCOCC3)C2c2ccc(Cl)cc2Cl)cc1 (stereo not drawn) | 1.71
COc1cc(=O)[nH]cc1C(=O)N1CCCN(C)c2ccccc21 | 46.8
COc1ccc(CCNC(=O)C2Cc3ccccc3CN2S(=O)(=O)c2cccs2)cc1OC (stereo not drawn) | 0.0649
Cc1cc(=O)n2nc(-c3cccs3)nc2n1CC(=O)N1CCN(C)CC1 | > 99
CNC(=O)Nc1cc(S(=O)(=O)C(C)C(=O)O)c(Cl)cc1F (stereo not drawn) | 89.8
Clc1ccc(-c2ccc(CNCCOc3ccccn3)o2)c(Cl)c1 | < 1
Cc1nn(-c2ccc(Cl)cc2)c2[nH]c(=O)c(CNCC3CCCO3)cc12 (stereo not drawn) | 81.5

Set 3 — tested at: 0.1 µM
Compound: C[C@@H]1CN(c2cc(-c3n[nH]c4ccc(OC5(C)CC5)cc34)ncn2)C[C@H](C)O1
target | test | remaining binding [%]
Myosin-IIIa (MYO3A, Homo sapiens, UniProt Q8NEV4) | cell-free assay, competition with immobilised ligand | 100
SRMS (Homo sapiens, UniProt Q9H3Y6) | cell-free assay, competition with immobilised ligand | 59
PRKAA2 (Homo sapiens, UniProt P54646) | cell-free assay, competition with immobilised ligand | 100
STK32A (Homo sapiens, UniProt Q8WU08) | cell-free assay, competition with immobilised ligand | 92
DMPK (Homo sapiens, UniProt Q09013) | cell-free assay, competition with immobilised ligand | 85
SIK1 (Homo sapiens, UniProt P57059) | competition binding | 100
NEK4 (Homo sapiens, UniProt P51957) | cell-free assay, competition with immobilised ligand | 84
FLT3 (Homo sapiens, UniProt P36888, F691L/ITD) | cell-free assay, competition with immobilised ligand | 69
CDK18 (Homo sapiens, UniProt Q07002) | cell-free assay, competition with immobilised ligand | 100
Tyrosine-protein kinase ABL1, non-phosphorylated (ABL1, Homo sapiens, UniProt P00519, F317L) | cell-free assay, competition with immobilised ligand | 73

Set 4 — observed: enzyme activity; action: inhibitor; tested at: 0.5 µM; reference: control
Target: Tyrosine-protein kinase Lck (LCK, Homo sapiens, UniProt P06239)
Chain of UniProt P06239 (whole entry, looked up): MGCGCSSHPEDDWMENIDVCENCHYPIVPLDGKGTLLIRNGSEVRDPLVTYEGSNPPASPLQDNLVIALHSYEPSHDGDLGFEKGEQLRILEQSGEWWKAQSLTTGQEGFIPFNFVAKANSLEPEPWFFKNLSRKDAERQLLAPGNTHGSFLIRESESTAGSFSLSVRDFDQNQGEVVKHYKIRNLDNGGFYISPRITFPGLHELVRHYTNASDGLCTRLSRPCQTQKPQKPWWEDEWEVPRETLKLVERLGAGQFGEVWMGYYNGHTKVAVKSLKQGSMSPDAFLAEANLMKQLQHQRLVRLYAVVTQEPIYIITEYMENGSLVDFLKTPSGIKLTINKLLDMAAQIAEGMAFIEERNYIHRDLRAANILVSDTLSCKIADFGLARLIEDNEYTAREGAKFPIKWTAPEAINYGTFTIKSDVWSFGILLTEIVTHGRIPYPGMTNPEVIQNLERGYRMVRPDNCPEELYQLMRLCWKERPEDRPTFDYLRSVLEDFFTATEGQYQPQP
Compound | remaining activity
Cc1ccc(Nc2nccc(N(C)c3ccc4c(C)n(C)nc4c3)n2)cc1S(N)(=O)=O | 43.3%
O=C1NC(=O)C(c2cn(CCCn3ccnc3)c3ccccc23)=C1Nc1ccccc1 | 99.4%
COc1ccc(CNC(=O)Nc2ncc([N+](=O)[O-])s2)cc1 | 101%
O=C(O)c1ccc2c3c1cccc3c(=O)n1c3ccccc3nc21 | 101%
Nc1[nH]nc2nc3ccccc3nc12 | 93.6%
O=S(=O)(c1cccc2cnccc12)N1CCCNCC1 | 101%
COc1cc2nccc(Oc3ccc(NC(=S)NC(=O)c4ccccc4C)cc3)c2cc1OC | 1.62%
OCC(O)CCON=C1C(c2c(O)[nH]c3ccccc23)=Nc2ccccc21 (stereo not drawn) | 29.7%
CN(C)c1ccc(C=C2C(=O)Nc3ccccc32)cc1 | 93%
COc1ccc(OC)c2c(=S)c3ccccc3[nH]c12 | 94.7%
Cc1nc(-c2ccccc2)c(-c2ccncc2)o1 | 99.7%
CO[C@H]1C[C@@H]2CC[C@@H](C)[C@@](O)(O2)C(=O)C(=O)N2CCCC[C@H]2C(=O)O[C@H]([C@H](C)C[C@@H]2CC[C@@H](O)[C@H](OC)C2)CC(=O)[C@H](C)/C=C(\C)[C@@H](O)[C@@H](OC)C(=O)[C@H](C)C[C@H](C)/C=C/C=C/C=C/1C | 99.4%
CCOC(=O)c1c(C)[nH]c(/C=C2\C(=O)Nc3ccccc32)c1C | 88.2%
N#CC(C#N)=C(N)/C(C#N)=C/c1ccc(O)cc1 | 95.1%
Cn1sc(=O)n(Cc2ccccc2)c1=O | 103%
Cc1ccc(NC(=O)c2ccc(CN3CCN(C)CC3)cc2)cc1Nc1nc(-c2cccnc2)cs1 | 7.63%
O=C(Nc1cccc(Nc2cc(Nc3cccc(C(F)(F)F)c3)ncn2)c1)C1CC1 | 100%
Nc1ncnc2n[nH]c(Nc3ccc(F)cc3)c12 | 98.3%
CC(C)[C@H](CO)Nc1nc(Nc2cc(N)cc(Cl)c2)c2ncn(C(C)C)c2n1 | 70.2%
Oc1ccc(-c2nc(-c3ccncc3)c(-c3ccc(F)cc3)[nH]2)cc1 | 92.6%
COc1ccc(C(=O)Nc2sc3c(c2C(N)=O)CCCC3)cc1OC | 93.8%
NCCNc1ncc(C(N)=O)c(Nc2cccc(C(F)(F)F)c2)n1 | 87.6%
Cc1cccc(-c2[nH]c(C(C)(C)C)nc2-c2ccc3c(c2)OCO3)n1 | 97.9%
O=C1NC(=O)C(c2cn(CCCO)c3ncccc23)=C1c1cnccn1 | 95.8%
O=C(CCCc1ccc(-c2ccccc2F)cc1)Nc1ccc(O)cc1 | 95.5%

A few entries again (set 1):
test | system | setting | plasma concentration, geometric mean
– | human patients | 150 mg once daily, 8 h, cycle 1 | 4190 ng/mL
– | cancer patients | 200 mg, 4 h post-dose, single dose | 1210 ng/mL
– | human patients | 100 mg once daily, 6 h, cycle 1 | 2910 ng/mL
LC-MS/MS | human | 200 mg twice daily, 0 h | 11300 ng/mL
